# Measurements from different studies.
# Protocols differ between the studies behind these lines. Several values in a cell are separate wells, animals, samples, runs or records.
# CAMK2A: Calcium/calmodulin-dependent protein kinase type II subunit alpha (CAMK2A, Homo sapiens, UniProt Q9UQM7)
# UniProt Q9UQM7, sequence (whole entry, looked up): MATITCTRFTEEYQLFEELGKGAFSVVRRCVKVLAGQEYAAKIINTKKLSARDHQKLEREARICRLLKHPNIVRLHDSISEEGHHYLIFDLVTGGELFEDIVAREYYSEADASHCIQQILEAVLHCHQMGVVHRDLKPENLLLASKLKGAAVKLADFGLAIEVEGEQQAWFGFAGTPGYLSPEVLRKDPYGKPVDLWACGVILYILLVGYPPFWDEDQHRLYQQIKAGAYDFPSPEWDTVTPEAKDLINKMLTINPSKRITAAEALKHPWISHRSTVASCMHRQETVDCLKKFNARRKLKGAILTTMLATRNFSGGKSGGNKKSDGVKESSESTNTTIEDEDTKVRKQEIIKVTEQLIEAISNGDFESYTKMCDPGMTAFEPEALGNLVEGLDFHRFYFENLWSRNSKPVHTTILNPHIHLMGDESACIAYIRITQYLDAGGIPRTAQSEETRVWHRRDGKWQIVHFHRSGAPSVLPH
SMILES,target or system,assay,test system,conditions,endpoint,result
Cc1cccc(C=O)c1,CAMK2A,"enzyme activity, inhibitor",,10 µM,inhibition,0%
CN[C@@H]1C[C@H]2O[C@@](C)([C@@H]1OC)n1c3ccccc3c3c4c(c5c6ccccc6n2c5c31)C(=O)NC4,human CD34+ HSPC,EdU flow cytometry,,"100 nM, 24 h",S-phase cells,34% and 26.5%
O=c1ccc2ccc3occc3c2o1,,,"mouse, microsomes or S9","2 µM, 0.5 h",remaining compound,22.4%
CC(=O)N[C@@H](Cc1c[nH]c2ccccc12)C(=O)N[C@@H](CCC(=O)C=[N+]=[N-])C(=O)OC(C)C,,,"C57BL/6 CES1-/- mouse, blood","intravenous, 1 mg/kg equivalent",haemoglobin,7.47 g/dL
CCCCCCCCCC(=O)N[C@@H](Cc1c[nH]c2ccccc12)C(=O)N[C@H](CC(N)=O)C(=O)N[C@@H](CC(=O)O)C(=O)N[C@@H]1C(=O)NCC(=O)N[C@@H](CCCN)C(=O)N[C@@H](CC(=O)O)C(=O)N[C@H](C)C(=O)N[C@@H](CC(=O)O)C(=O)NCC(=O)N[C@H](CO)C(=O)N[C@@H]([C@H](C)CC(=O)O)C(=O)N[C@@H](CC(=O)c2ccccc2N)C(=O)O[C@@H]1C,CAMK2A,"enzyme activity, inhibitor",,10 µM,inhibition,-7%
O=C1N=C(O)N=C(O)/C1=C\NNC(=O)c1ccccc1O,,,"mouse, microsomes or S9","2 µM, 0.5 h",remaining compound,70.2%
c1c2c(cc3c1OCO3)-c1cc3cc4c(cc3c[n+]1CC2)OCO4,CAMK2A,"enzyme activity, inhibitor",,10 µM,inhibition,0%
Cc1ccc2cc3c(nc2c1)OCCN(C1CCCC1)C3,,,"mouse, microsomes or S9","2 µM, 0.5 h",remaining compound,0.155%

# Repeated from above:
SMILES,target or system,assay,test system,conditions,endpoint,result
O=C1N=C(O)N=C(O)/C1=C\NNC(=O)c1ccccc1O,,,"mouse, microsomes or S9","2 µM, 0.5 h",remaining compound,70.2%
